{"data": "Results collected from several papers", "note": "Parts stem from different laboratories: compare values within a part only."}
{"data": "Set 1", "target": "Interferon regulatory factor 5, full length, phosphomimetic (IRF5, Homo sapiens, UniProt Q13568-2, residues 1-514, S451D/S453D/S456D/S462D)", "technique": "protein-binding microarray", "form": "double-stranded DNA, one strand shown", "medium": "in vitro", "tested at": "940 nM top", "notes": "60-bp whole probe", "together with": "salmon DNA 0.4 mg/ml", "baseline": "random background probes", "direction": "higher = stronger binding", "shared flanks, not repeated": "GCCTAGCAC … GTCTTGATTCGCTTGACGCTGCTG"}
{"Sequence": "TTAGATTGCAGACTGGATTAGTGCTAG", "fitted relative affinity [z-score]": -0.278}
{"Sequence": "TCTAGCCTCCATTTTTACCCGTGCTAG", "fitted relative affinity [z-score]": 0.321}
{"Sequence": "GACGGTTTCCTTTCCCTCACGTGCTAG", "fitted relative affinity [z-score]": 1.77}
{"Sequence": "GACGGATTCCTACTGCTGACGTGCTAG", "fitted relative affinity [z-score]": -0.151}
{"Sequence": "TCATATATTCATATATAACTGTGCTAG", "fitted relative affinity [z-score]": 0.168}
{"Sequence": "GTAGGTTTCGGGACTGGGTTAGTGCTA", "fitted relative affinity [z-score]": 7.5}
{"Sequence": "GACGATTTCAGTATCGAGAGGTGCTAG", "fitted relative affinity [z-score]": 2.48}
{"Sequence": "TTGGGTTCCCTTTTCCTTTAGTGCTAG", "fitted relative affinity [z-score]": 0.694}
{"data": "Set 2", "cell line": "HEK-293T", "read-out": "pseudovirus infection", "technique": "FDA-approved drug library screen", "organism": "VSV pseudotyped with SARS-CoV-2 spike", "tested at": "10 µM", "time": "16 h", "baseline": "vehicle-treated"}
{"Compound": "Nc1ccc(S(=O)(=O)Nc2nccs2)cc1", "GFP-positive cells [%]": 126}
{"Compound": "CN1CCC(OC(c2ccccc2)c2ccccc2)CC1", "GFP-positive cells [%]": 71.6}
{"Compound": "CC(COc1ccccc1)N(CCCl)Cc1ccccc1 (stereo not drawn)", "GFP-positive cells [%]": 89.3}
{"Compound": "COC(=O)[C@H]1[C@H]2C[C@@H]3c4[nH]c5cc(OC)ccc5c4CCN3C[C@H]2C[C@@H](OC(=O)c2cc(OC)c(OC)c(OC)c2)[C@@H]1OC", "GFP-positive cells [%]": 65}
{"Compound": "Cc1nnc(SCC2=C(C(=O)O)N3C(=O)[C@@H](NC(=O)Cn4cnnn4)[C@H]3SC2)s1", "GFP-positive cells [%]": 70.1}
{"data": "Set 3", "organism": "SARS-CoV-2", "read-out": "cytopathic effect", "cells": "Vero E6", "tested at": "10 µM"}
{"Structure (SMILES)": "C=CC1=C(C)c2cc3[nH]c(cc4nc(cc5[nH]c(cc1n2)c(C)c5C=C)C(C)=C4CCC(=O)O)c(CCC(=O)O)c3C.[Fe+3]", "inhibition [%]": -4.8}
{"Structure (SMILES)": "CCCCC/C=C\\C/C=C\\C/C=C\\C/C=C\\CCCC(=O)O", "inhibition [%]": -8.4}
{"Structure (SMILES)": "c1ccc2sc(SSc3nc4ccccc4s3)nc2c1", "inhibition [%]": 9.8}
{"Structure (SMILES)": "O=C(O)c1cc(O)c2c(c1)[C@H]([C@H]1c3cc(C(=O)O)cc(O)c3C(=O)c3c(O[C@@H]4O[C@H](CO)[C@@H](O)[C@H](O)[C@H]4O)cccc31)c1cccc(O[C@@H]3O[C@H](CO)[C@@H](O)[C@H](O)[C@H]3O)c1C2=O", "inhibition [%]": 3.3}
{"Structure (SMILES)": "C[C@@H]1O[C@@H](Oc2c(-c3cc(O)c(O)c(O)c3)oc3cc(O)cc(O)c3c2=O)[C@@H](O)[C@H](O)[C@H]1O", "inhibition [%]": -3.2}
{"data": "Set 4", "target": "Sal-like protein 4, full length isoform A (SALL4, Homo sapiens, UniProt Q9UJQ4, residues 1-1053)", "technique": "universal PBM", "form": "double-stranded DNA, one strand shown", "medium": "in vitro", "tested at": "600 nM", "notes": "8-mer, flanks averaged, mean of replicates", "direction": "higher = stronger binding", "chain of UniProt Q9UJQ4 (whole entry, looked up)": "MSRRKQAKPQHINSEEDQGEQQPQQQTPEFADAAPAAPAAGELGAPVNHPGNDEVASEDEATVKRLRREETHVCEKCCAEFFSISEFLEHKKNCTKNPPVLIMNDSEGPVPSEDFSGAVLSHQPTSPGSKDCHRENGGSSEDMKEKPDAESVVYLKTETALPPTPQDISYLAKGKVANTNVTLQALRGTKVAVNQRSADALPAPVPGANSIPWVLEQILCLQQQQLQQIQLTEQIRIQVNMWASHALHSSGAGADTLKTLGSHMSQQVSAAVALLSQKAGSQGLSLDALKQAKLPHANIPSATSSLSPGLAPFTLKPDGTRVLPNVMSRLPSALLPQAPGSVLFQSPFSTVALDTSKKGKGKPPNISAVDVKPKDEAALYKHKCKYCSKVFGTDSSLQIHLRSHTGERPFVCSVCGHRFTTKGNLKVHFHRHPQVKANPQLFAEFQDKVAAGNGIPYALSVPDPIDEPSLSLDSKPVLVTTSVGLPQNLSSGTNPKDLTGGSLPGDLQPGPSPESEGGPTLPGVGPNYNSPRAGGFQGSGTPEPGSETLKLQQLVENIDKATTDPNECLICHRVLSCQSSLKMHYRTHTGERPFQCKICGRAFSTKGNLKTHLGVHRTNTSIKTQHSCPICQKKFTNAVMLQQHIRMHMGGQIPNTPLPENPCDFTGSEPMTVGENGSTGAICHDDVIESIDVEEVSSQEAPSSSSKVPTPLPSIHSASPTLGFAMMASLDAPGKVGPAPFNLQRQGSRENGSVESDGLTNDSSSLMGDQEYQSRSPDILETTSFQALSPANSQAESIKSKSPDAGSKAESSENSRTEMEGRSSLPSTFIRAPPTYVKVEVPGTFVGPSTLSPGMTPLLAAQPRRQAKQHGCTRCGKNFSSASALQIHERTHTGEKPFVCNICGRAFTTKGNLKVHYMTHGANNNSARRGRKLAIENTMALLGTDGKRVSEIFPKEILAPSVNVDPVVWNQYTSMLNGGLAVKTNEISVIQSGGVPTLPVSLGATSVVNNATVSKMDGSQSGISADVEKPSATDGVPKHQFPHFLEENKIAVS"}
{"Sequence": "CAGTGGCG", "E-score": -0.297}
{"Sequence": "CAGTGTAC", "E-score": -0.0833}
{"Sequence": "GTTGCCCA", "E-score": -0.025}
{"Sequence": "ATTCCAAC", "E-score": 0.0673}
{"Sequence": "CATGAGGA", "E-score": 0.0133}
{"Sequence": "CGCAGCCC", "E-score": -0.266}
{"Sequence": "CATCCAAG", "E-score": -0.157}
{"Sequence": "CGAAACTA", "E-score": 0.104}
{"data": "Set 5", "target": "Replicase polyprotein 1ab, nsp13 helicase (rep, Severe acute respiratory syndrome coronavirus 2, UniProt P0DTD1)", "mode": "inhibitor", "tested at": "20 µM"}
{"SMILES": "O=C(O)/C=C1\\CCCc2ccccc2C1O (stereo not drawn)", "inhibition [%]": 3.4}
{"SMILES": "COc1cc2c(cc1OC)CN(CCc1ccc(NC(=O)c3cc(OC)c(OC)cc3NC(=O)c3cnc4ccccc4c3)cc1)CC2", "inhibition [%]": 5.71}
{"SMILES": "CCN1C(C)(C)CC(Oc2ccc(C(=O)Nc3ccc(NC(=O)Nc4cc(C(C)(C)C)on4)cc3)nc2)CC1(C)C", "inhibition [%]": 11.8}
{"SMILES": "Cc1ccccc1NC(=O)Nc1ccc(CC(=O)N(C)[C@@H](CC(C)C)C(=O)NCC[C@H](NC(=O)[C@@H]2CCCN2S(=O)(=O)c2cc(Cl)cc(Cl)c2)C(=O)O)cc1", "inhibition [%]": 12.5}
{"SMILES": "CCCC(C)(COC(N)=O)COC(=O)NC(C)C (stereo not drawn)", "inhibition [%]": 3.91}
{"SMILES": "CC1CCc2c(cc(Br)c(F)c2Br)N1C=O (stereo not drawn)", "inhibition [%]": -2.63}
{"SMILES": "CCCCCOc1ccc(-c2ccc(-c3ccc(C(=O)N[C@H]4C[C@@H](O)[C@@H](O)NC(=O)[C@@H]5[C@@H](O)[C@@H](C)CN5C(=O)[C@H]([C@@H](C)O)NC(=O)[C@H]([C@H](O)[C@@H](O)c5ccc(O)cc5)NC(=O)[C@@H]5C[C@@H](O)CN5C(=O)[C@H]([C@@H](C)O)NC4=O)cc3)cc2)cc1", "inhibition [%]": 7.43}
{"SMILES": "CCCN(CCC)C1Cc2cc(OC)c(OC)cc2C1", "inhibition [%]": -3.65}
{"SMILES": "N#C/C(=C\\c1ccc(O)c(O)c1)C(N)=O", "inhibition [%]": 2.59}
{"SMILES": "COc1ccc2c(C(=S)N(C)CC(=O)O)cccc2c1C(F)(F)F", "inhibition [%]": -6.06}
{"SMILES": "O=C(O)[C@@H](O)[C@@H](O)[C@H](O)[C@@H](O)C(=O)O", "inhibition [%]": 0.42}
{"SMILES": "Oc1cccc(Nc2ncc(F)c(Nc3cccc(O)c3)n2)c1", "inhibition [%]": -0.01}
{"SMILES": "Nc1nc(NC2CC2)cc(-c2cccc(Cl)c2Cl)n1", "inhibition [%]": -0.68}
{"SMILES": "CCCCCCCCCCCCCCCc1cccc(OCC(=O)NCCO)c1", "inhibition [%]": -1.81}
{"SMILES": "Cc1ccc(NC(=O)c2cccc(N(C)C)c2)cc1NC(=O)c1ccc(O)cc1", "inhibition [%]": 4.17}
{"SMILES": "O=C(O)[C@H](O)[C@@H](O)[C@H](O[C@@H]1O[C@H](CO)[C@H](O)[C@H](O)[C@H]1O)[C@H](O)CO", "inhibition [%]": -5.15}
{"SMILES": "C[C@@]1(O)[C@H](O)[C@@H](CO)O[C@H]1n1ccc(N)nc1=O", "inhibition [%]": 5.43}
{"SMILES": "CCn1c(=O)/c(=C2\\Sc3ccccc3N2C)s/c1=C\\c1cccc[n+]1CC", "inhibition [%]": 76.6}
{"SMILES": "COc1cccc2c1C(=O)c1c(O)c3c(c(O)c1C2=O)C[C@@](O)(C(=O)CO)C[C@@H]3O[C@H]1C[C@H](N)[C@H](O[C@@H]2CCCCO2)[C@H](C)O1", "inhibition [%]": 46}
{"SMILES": "C=C1CC[C@H](O)C/C1=C/C=C1\\CCC[C@]2(C)[C@@H]([C@H](C)/C=C/[C@H](C)C(C)C)CC[C@@H]12", "inhibition [%]": 15.2}
{"SMILES": "O=C(Nc1ccc(N2CCC(C(=O)N3CCOCC3)CC2)cc1)c1cnc(Oc2ccccc2)nc1", "inhibition [%]": 3.15}
{"SMILES": "CC[C@@H](NC(C)C)[C@@H](O)c1ccc(O)c2[nH]c(=O)ccc12", "inhibition [%]": 2.61}
{"SMILES": "C[N+]1(CC2CC2)[C@@H]2C[C@@H](OC(=O)[C@H](CO)c3ccccc3)C[C@H]1[C@@H]1O[C@@H]12 (stereo partly drawn)", "inhibition [%]": 9.74}
{"SMILES": "CC(C)(C=O)Cc1cc(C(C)(C)C)c(O)c(C(C)(C)C)c1", "inhibition [%]": 2.48}
{"SMILES": "O=C(NOCC1CC1)c1ccc(F)c(F)c1Nc1ccc(I)cc1Cl", "inhibition [%]": 10.1}
{"note": "Repeated from above (set 4):"}
{"Sequence": "GTTGCCCA", "E-score": -0.025}
{"Sequence": "CGCAGCCC", "E-score": -0.266}
{"Sequence": "CAGTGGCG", "E-score": -0.297}
{"Sequence": "CGAAACTA", "E-score": 0.104}
{"Sequence": "ATTCCAAC", "E-score": 0.0673}
{"Sequence": "CATGAGGA", "E-score": 0.0133}
{"Sequence": "CAGTGTAC", "E-score": -0.0833}
